{"data": "Measured values of several laboratories", "note": "Each line is one published result; not all experiments were run side by side. Several values in a cell are separate wells, animals, samples, runs or records. ± marks the error that the study gave."}
{"SMILES": "COc1cc(N(C)CCN(C)C)c(NC(=O)CCSCC(N)C(=O)O)cc1Nc1nccc(-c2cn(C3CC3)c3ccccc23)n1 (centres unmarked)", "test": "radio-HPLC", "test system": "human, feces", "setting": "0 to 48 h, sample holds 45.32% dose", "scale": "relative to: dose", "quantity": "excreted amount", "result": "0.74%"}
{"SMILES": "N=C(N)NCCC[C@@H]1NC(=O)[C@H](Cc2c[nH]c3ccccc23)NC(=O)[C@@H](CC2CCCCC2)NC(=O)[C@@H]2CCCN2C(=O)[C@@H](NC(=O)CCc2ccccc2)CCCNC1=O", "test system": "C57BL/6J mice, urine", "setting": "oral, 1 mg/kg, up to 90 min", "quantity": "amount excreted unchanged", "result": "4.2 ± 0.5 ng"}
{"SMILES": "C[C@H](NC(=O)COC(=O)[C@H](C)NC(=O)CO)C(=O)O", "test system": "water", "setting": "pH 5, 25 °C", "quantity": "depolymerization half-life", "result": "43.2 h"}
{"SMILES": "O=C(CCc1ccc(CNC(C(=O)OC2CCCC2)C2CCCCC2)cn1)NO (centres unmarked)", "test system": "human, plasma", "setting": "oral, 40 mg once daily, day 1, median", "quantity": "Tmax", "result": "37.5 min"}
{"SMILES": "NCC(=O)N1CCC[C@H]1C(=O)N1C[C@H](O)C[C@H]1C(=O)O", "test": "potentiometric titration", "setting": "40 °C, MAH-2 complex, added: Fe(III)", "quantity": "log beta", "result": 8.75}
{"SMILES": "CC12CC(c3ccc(S(C)(=O)=O)cc3)C3=C4CCC(=O)C=C4CCC3C1CCC2(O)C(F)(F)C(F)(F)F (centres unmarked)", "test system": "human", "setting": "oral, 4 mg", "scale": "relative to: subjects", "quantity": "possibly drug-related headache incidence", "result": "21.4%"}
{"SMILES": "CCCC[C@H](NC(=O)CNC(=O)CNC(=O)CN1CCN(CC(=O)O)CCN(CC(=O)O)CCN(CC(=O)O)CC1)C(=O)N[C@H]1CC(=O)NCCCC[C@@H](C(N)=O)NC(=O)[C@H](Cc2c[nH]c3ccccc23)NC(=O)[C@H](CCCNC(=N)N)NC(=O)[C@@H](Cc2ccccc2)NC(=O)[C@H](Cc2c[nH]cn2)NC1=O [copper-64 labelled]", "test system": "female C57 mouse, B16/F1 melanoma", "setting": "intravenous, 0.037 MBq, 2 h", "scale": "relative to: tumour over stomach", "quantity": "uptake ratio", "result": 1.09}
{"SMILES": "Cc1cc(O)cc(O)c1C(=O)c1c2c3c(c(O)cc(C)c3oc1=O)C(=O)c1c(O)cc(O)cc1-2", "test system": "Caco-2", "setting": "100 µM, 3 h, pH 7.4", "quantity": "Papp B→A", "result": "0.067 ×10⁻⁶ cm/s"}
{"SMILES": "COc1cccc(C=NCCCN(C)CCN(C)CCCN=Cc2cccc(OC)c2[O-])c1[O-].[67Ga+3]", "test system": "rat", "setting": "intravenous, 2 h", "scale": "relative to: heart over lung", "quantity": "tissue uptake ratio", "result": "2.9 ± 0.4"}
{"SMILES": "COC(=O)C(c1ccccc1Cl)N1CCC(SCC(=O)c2cccc(OC)c2)C(=CC(=O)O)C1 (mixture of isomers)", "test": "HPLC-MS/MS", "test system": "feline citrate plasma", "setting": "100 ng/mL, 72 h, -80 °C, storage stability", "quantity": "deviation from nominal", "result": "-8%"}
{"SMILES": "CC(=O)N[C@H](CCCCN)C(=O)N[C@H](CC(C)C)C(=O)N[C@H](CCCCN)C(=O)N[C@H](CO)C(=O)N[C@H](CC(C)C)C(=O)N[C@H](CC(C)C)C(=O)N[C@H](CCCCN)C(=O)N[C@@H](C(=O)N[C@H](CC(C)C)C(=O)N[C@H](CO)C(=O)N[C@H](CCCCN)C(=O)N[C@H](C)C(=O)N[C@H](CCCCN)C(=O)N[C@H](CCCCN)C(=O)N[C@H](CCCCN)C(=O)N[C@H](CCCCN)C(=O)N[C@H](CC(C)C)C(=O)N[C@H](CCCCN)C(=O)N[C@@H](C(=O)N[C@H](CC(C)C)C(=O)N[C@H](CC(C)C)C(=O)N[C@H](CCCCN)C(=O)N[C@H](C)C(=O)N[C@H](CC(C)C)C(=O)N[C@H](CO)C(=O)N[C@H](CCCCN)C(N)=O)[C@H](C)O)[C@H](C)O", "test": "circular dichroism", "test system": "aqueous buffer", "setting": "pH 7.0, 5 °C", "scale": "relative to: reference peptide in TFE", "quantity": "helical content", "result": "9%"}
{"SMILES": "[11CH3]c1ccc2nc(C3CCC3)n(-c3ccc4[nH]ncc4c3)c2n1", "test system": "human male, spleen", "quantity": "absorbed radiation dose", "result": "2.1 µSv/MBq"}
{"SMILES": "Cc1cn(-c2ccc(-c3cc(C)c(N[C@@H](C)c4ccc(F)cc4)nn3)nc2O[11CH3])cn1", "test": "PET-MRI", "test system": "male rhesus macaque, brain", "setting": "intravenous, 2 mCi", "quantity": "brain uptake", "result": "0.8 to 3 SUV"}
{"SMILES": "Nc1nc(-n2nnc3c2CCC2C(CO)C2CC3)nc2c1ncn2C1OC(CO)C(O)C1O (mixture of isomers)", "test": "frequency-domain fluorometry", "test system": "methanol", "quantity": "fluorescence lifetime τ1", "result": "0.3 ns"}
{"SMILES": "CC(C)c1cnc(-c2cc(Cl)ccc2F)cc1Nc1ccncc1C(=O)NC(CO)CO", "test": "monotherapy, refers to: diarrhoea", "test system": "human patients", "setting": "oral, dose not given, grade 3, phase I A", "quantity": "patients with treatment-related adverse event", "result": "0%"}
{"SMILES": "CCN(CC)c1ccc2c(-c3ccccc3C(=O)OCCOCCOCC[18F])c3ccc(=[N+](CC)CC)cc-3oc2c1", "test system": "rat, heart", "setting": "60 min", "quantity": "tissue uptake", "result": "1.32 %ID/g and 1.03 %ID/g"}
{"SMILES": "COc1ccc(NC(=O)[C@H](CCCCN)NC(=O)c2cc(NC(=O)[C@H](CCCCN)NC(=O)c3cc(NC(=O)[C@H](CCCCN)NC(=O)c4cc(NC(=O)[C@@H](N)CCCCN)ccc4OC)ccc3OC)ccc2OC)cc1C(=O)NCCC(=O)O", "test": "UV-vis λmax shift", "test system": "TBS", "setting": "pH 7.4, monomer-hexamer fit, added: NaCl 0.15 M", "quantity": "association midpoint concentration", "result": "0.06 mM"}
{"SMILES": "Cc1ccc(-c2ccc(-c3cc4sccc4o3)cn2)nc1", "test": "TCSPC", "test system": "water, HEPES 100 mM", "setting": "pH 7.4, zinc-free ligand", "quantity": "radiative decay rate constant", "result": "0.23 ns⁻¹"}
{"SMILES": "COc1ccc(-c2csc(N/N=C(\\C)c3cc(O)cc(O)c3)n2)cc1", "test": "LC-MS/MS", "test system": "rat plasma", "setting": "3.75 ng/mL, freeze-thaw 5 cycles at -70 °C", "quantity": "concentration after storage", "result": "3.48 ng/mL"}
{"SMILES": "CCCCCCCCCCC(=O)C(F)(F)F", "test": "19F NMR", "test system": "chloroform", "quantity": "hydrate fraction", "result": "0%"}
{"SMILES": "CC(C)[C@H](NC(=O)[C@@H]1CCCN1C(=O)[C@H](CCCNC(=N)N)NC(=O)[C@H](CS)NC(=O)[C@H](Cc1c[nH]c2ccccc12)NC(=O)[C@H](CCCNC(=N)N)NC(=O)[C@@H](Cc1ccccc1)NC(=O)[C@H](Cc1c[nH]cn1)NC(=O)[C@H](CCC(=O)O)NC(=O)[C@H](CS)NC(=O)[C@H](CS)NC(=O)CNC(=O)[C@@H]1CC(=O)N[C@@H](CCCNC(=N)N)C(=O)NCC(=O)N[C@@H](CC(=O)O)C(=O)N[C@H](Cc2ccc(O)cc2)C(=O)N1)C(N)=O [technetium-99m labelled]", "test system": "C57 mouse, female, B16/F1 melanoma", "setting": "intravenous, 0.037 MBq, 0.5 h", "scale": "relative to: tumour over kidneys", "quantity": "tumour to tissue ratio", "result": 0.28}
{"SMILES": "O=C(O)/C=C/c1cccc(S(=O)(=O)Nc2ccccc2)c1", "test system": "human, mild liver dysfunction, plasma", "setting": "intravenous, 400 mg/m^2 belinostat, cycle 1 day -7, geometric mean", "scale": "relative to: metabolite over belinostat", "quantity": "AUC(0-inf) metabolic ratio", "result": 0.423}
{"SMILES": "Cn1c(=O)oc2ccc(-c3ccc(CC(C#N)NC(=O)C4CNCCCO4)c(F)c3)cc21 (centres unmarked)", "test": "refers to: skin exfoliation", "test system": "human volunteers", "setting": "oral, dose not given", "quantity": "treatment-emergent adverse event incidence", "result": "3.7%"}
{"SMILES": "Cc1ccc(OCC(=O)N(Cc2cccs2)c2ccn[nH]2)cc1", "test system": "male Sprague-Dawley rat, plasma", "setting": "intravenous, 1 mg/kg, single dose", "quantity": "half-life", "result": "15 min"}
{"SMILES": "NC(=O)[C@@H](Cc1ccccc1)N[11C](=O)OCc1ccccc1", "test system": "male Wistar rats, plasma", "setting": "intravenous, 15 min", "quantity": "intact tracer", "result": "49.2% and 49%"}
{"SMILES": "C[C@H](Oc1cc(-c2cnn(C3CCN(CC[18F])CC3)c2)cnc1N)c1c(Cl)ccc(F)c1Cl", "test": "PET imaging", "test system": "nude mouse, brain", "setting": "iv, 10 min post injection", "quantity": "tracer uptake", "result": "6.5 ± 2.8 %ID/cc"}
{"SMILES": "COc1cc([O-])c(C=NCCCN(C)CCN(C)CCCN=Cc2c([O-])cc(OC)cc2OC)c(OC)c1.[67Ga+3]", "test system": "rat", "setting": "intravenous, 1 min", "scale": "relative to: heart over blood", "quantity": "tissue uptake ratio", "result": "0.68 ± 0.08"}
{"SMILES": "CN[C@@H]1[C@H](O)[C@H](NC)[C@H]2O[C@]3(O)[C@H](O[C@@H]2[C@H]1O)O[C@H](C)C[C@@]3(O)CNCCc1nccs1", "test system": "male BALB/c mouse, plasma", "setting": "intravenous, 10 mg/kg", "quantity": "C0", "result": "19300 ng/mL"}
{"SMILES": "COc1cc(C(=O)COC(=O)CCCN)ccc1O", "test": "pump-probe transient absorption", "test system": "10% acetonitrile in water", "quantity": "singlet lifetime", "result": "4.6 ps"}
{"note": "For quick reference, copied from above:"}
{"SMILES": "Cn1c(=O)oc2ccc(-c3ccc(CC(C#N)NC(=O)C4CNCCCO4)c(F)c3)cc21 (centres unmarked)", "test": "refers to: skin exfoliation", "test system": "human volunteers", "setting": "oral, dose not given", "quantity": "treatment-emergent adverse event incidence", "result": "3.7%"}
